Measurements from different studies.
Each line is one published result; not all experiments were run side by side. “And” joins repeats or separate records; there may be more than shown. Numbers after ± are the reported error.

SMILES	assay	system	conditions	how to read	quantity	result
CN(C)C(=O)CNC(=O)c1ccc(C2CCCCC2)cc1	hepatocyte stability	cryopreserved mouse hepatocytes	1 µM	–	hepatic clearance	4.8 L/h/kg
C=CC(=O)Nc1cc(Nc2nccc(-c3cn(C)c4ccccc34)n2)c(OC)cc1N(C)CCNC	–	human, plasma	270 ng/mL, 30 d, -80 °C, high QC level	–	remaining compound	101%
CCCC[C@H](NC(=O)CNC(=O)CNC(=O)[C@H](CCCCNC(=O)[C@H](CC(N)=O)NC(=O)C(C)c1ccc(CC(C)C)cc1)NC(=O)CN1CCN(CC(=O)O)CCN(CC(=O)O)CCN(CC(=O)O)CC1)C(=O)N[C@H]1CC(=O)NCCCC[C@@H](C(N)=O)NC(=O)[C@H](Cc2c[nH]c3ccccc23)NC(=O)[C@H](CCCNC(=N)N)NC(=O)[C@@H](Cc2ccccc2)NC(=O)[C@H](Cc2c[nH]cn2)NC1=O (stereo partly drawn) [lutetium-177 labelled]	–	C57 mouse, urine	2 h	–	urinary excretion	67.1 ± 3.44%
O=C(Nc1cnccc1-c1ccc([18F])nc1)c1ccnc(NC(=O)C2CC2)c1	PET imaging	FVB/NJ mice, both sexes, liver	intravenous, 10 min post-injection	–	SUV	9.33
COC(=O)[C@@]1(C)C=C(C(=O)Nc2cccc(C(=O)Nc3ccc(Nc4nccc(-c5cccnc5)n4)c(C)c3)c2)C(=O)CC1	metabolic stability	Wistar rat, male, primary hepatocytes	1 µM, 30 min	–	compound remaining	21.2%
O=C(NS(=O)(=O)c1cccs1)c1cc2ccccc2n1Cc1ccc(Br)c2ccccc12	–	Sprague-Dawley rat, male	intravenous, dose not given, 0.25 h	–	plasma concentration	1.29 µg/mL
F[C@@H]1[C@H](c2ccc(-c3cnc(N4CCOCC4)nc3)cc2)[C@H](F)[C@H](F)C[C@@H]1F	liver microsome stability	dog liver microsomes	1 µM	–	hepatic clearance	1.08 L/h/kg
CC1(C)CC[C@]2(NC(=O)C(C)(F)F)CC[C@]3(C)[C@H](C(=O)C=C4[C@@]5(C)C=C(C#N)C(=O)C(C)(C)[C@@H]5CC[C@]43C)[C@@H]2C1	geometric least squares mean	human, plasma	oral, 150 mg, given alone	–	AUC(0-inf)	1.73 µg·h/mL
O=C(Nc1ccc([C@H]2[C@@H](F)[C@@H](F)C[C@@H](F)[C@H]2F)cc1)C1CC1	hepatocyte stability	cryopreserved mouse hepatocytes	1 µM	–	hepatic clearance	4.5 L/h/kg
CN1CCCNC(=O)c2cccc(c2)C(=O)NCCCN(C)CCCNc2cccc3c2C(=O)c2cccc(c2C3=O)NCCC1	–	nude mice, serum	dose not given, 10 days	–	γ-GTP	< 3 U/L
COc1cccc(OC)c1-c1cc(C(=O)NC2(C(=O)O)C3CC4CC(C3)CC2C4)nn1-c1ccc(C(=O)N(C)CCCN(C)CCCN(C)C(=O)[C@H](CCCCNC(=O)[C@H](CC(C)C)NC(=O)C2OC2C(=O)O)NC(=O)CN2CCN(CC(=O)[O-])CCN(CC(=O)[O-])CCN(CC(=O)[O-])CC2)cc1C(C)C.[177Lu+3] (mixture of isomers)	–	mouse, HT-29 xenograft	168 h post injection, biodistribution	reference: tumour over blood uptake	tumour-to-blood ratio	5.15
C/C(N)=N/C(=N\S(=O)(=O)c1ccc(C(F)(F)F)cc1)N1C[C@H](c2ccccc2)C(c2ccc(Cl)cc2)=N1	–	beagle dog, plasma	oral, 12 mg/kg	–	AUC(0-inf)	21.5 µg·h/mL
O=C(N1CCCCC1)C12CC(c3ccccc3)(C1)C2(Cl)Cl	–	pooled human liver microsomes	2 µM, pH 7.4	–	elimination rate constant	0.00045 s⁻¹
COc1cc2c(cc1OC)[C@H]1C[C@H](O)[C@H](CC(C)C)CN1CC2	item: non-deuterated analyte	healthy human male, plasma	oral, 25 mg, median, [14C]-tetrabenazine dosed	–	Tlag	0.5 h
C=Cc1cccc([B-]23OC(=O)C(c4ccccc4)=N[N+]2=Cc2ccc(N(CC)CC)cc2O3)c1 (stereo not drawn)	–	toluene	–	–	fluorescence emission maximum	508 nm
COc1cccc(OC)c1-c1cc(C(=O)NC2(C(=O)O)C3CC4CC(C3)CC2C4)nn1-c1ccc(C(=O)NCCNC(=O)[C@H](CCCCNC(=O)[C@H](CC(C)C)NC(=O)C2OC2C(=O)O)NC(=O)CN2CCN(CC(=O)[O-])CCN(CC(=O)[O-])CCN(CC(=O)[O-])CC2)cc1C(C)C.[177Lu+3] (mixture of isomers)	–	mouse, HT-29 xenograft	24 h post injection, biodistribution	reference: tumour over kidney uptake	tumour-to-kidney ratio	1
Cn1ncc2cc(CN3CCC(F)(F)C(COc4ccc(C#N)c(F)c4)C3)ccc21 (stereo not drawn)	equilibrium dialysis	mouse plasma	–	–	fu	0.008
CC(C)(O)Cn1nc(-c2ccccc2)c2c(Cl)c(-c3ccccc3)nnc21	–	mouse juvenile P6, plasma	intraperitoneal, 15 mg/kg	–	AUC	8.8 µM·h
O=C([O-])CN1CCN(CC(=O)[O-])CCN(C(CO)C(O)CO)CCN(CC(=O)[O-])CC1.[Dy+3] (stereo not drawn)	ICP-MS	cynomolgus monkey, feces	4 days post-injection	reference: dose	cumulative fecal excretion	0.4%
COc1cccc(OC)c1-c1cc(C(=O)NC2(C(=O)O)C3CC4CC(C3)CC2C4)nn1-c1ccc(C(=O)N(C)CCOCCOCCN(C)C(=O)[C@H](CCCCNC(=O)[C@H](CC(C)C)NC(=O)C2OC2C(=O)O)NC(=O)CN2CCN(CC(=O)[O-])CCN(CC(=O)[O-])CCN(CC(=O)[O-])CC2)cc1C(C)C.[177Lu+3] (mixture of isomers)	–	mouse, HT-29 xenograft	4 h post injection, biodistribution	reference: tumour over bone uptake	tumour-to-bone ratio	6.47

SMILES	assay	system	conditions	how to read	quantity	result
CN1CCC[C@]1(C)/C=C/S(=O)(=O)NC(=O)Nc1c2c(cc3c1CCC3)CCC2	item: Constipation, possibly related	human	oral, 50 mg twice daily, 14 days, multiple ascending dose	–	subjects with adverse event	33.3%
O=C(NCCOc1ccc(F)cc1)c1ccc(C2CCCCC2)cc1	liver microsome stability	mouse liver microsomes	1 µM	–	hepatic clearance	5.22 L/h/kg
COc1ccccc1NC(=O)OC1C(C)C(OC)C=COC2(C)Oc3c(C)c(O)c4c(c3C2=O)C2=NC3(CCN(CC(C)C)CC3)NC2=C(NC(=O)C(C)=CC=CC(C)C(O)C(C)C(O)C1C)C4=O (stereo not drawn)	–	CD-1 mouse, plasma	oral, dose not given, efficacy dose	–	fAUC/MIC ratio	3.46
COc1cccc(OC)c1-c1cc(C(=O)NC2(C(=O)O)C3CC4CC(C3)CC2C4)nn1-c1ccc(C(=O)N(C)CCCN(C)C(=O)[C@H](CCCCNC(=O)[C@H](CC(C)C)NC(=O)C2OC2C(=O)O)NC(=O)CN2CCN(CC(=O)[O-])CCN(CC(=O)[O-])CCN(CC(=O)[O-])CC2)cc1C(C)C.[177Lu+3] (mixture of isomers)	–	mouse, HT-29 xenograft	24 h post injection, biodistribution	reference: tumour over kidney uptake	tumour-to-kidney ratio	0.45
O=C(Nc1cnccc1-c1ccc([18F])cc1)c1ccnc(NC(=O)C2CC2)c1	–	FVB/NJ mouse, both sexes, brain	intravenous, 40 min	–	SUV	0.18
COc1cccc(OC)c1-c1cc(C(=O)NC2(C(=O)O)C3CC4CC(C3)CC2C4)nn1-c1ccc(C(=O)N(C)CCOCCN(C)C(=O)[C@H](CCCCNC(=O)[C@H](CC(C)C)NC(=O)C2OC2C(=O)O)NC(=O)CN2CCN(CC(=O)[O-])CCN(CC(=O)[O-])CCN(CC(=O)[O-])CC2)cc1C(C)C.[177Lu+3] (mixture of isomers)	–	mouse, HT-29 xenograft	4 h post injection, biodistribution	reference: tumour over kidney uptake	tumour-to-kidney ratio	0.31
CC(C)C[C@H](NC(=O)[C@H](CO)NC(=O)[C@H](CCC(=O)O)NC(=O)CNC(=O)[C@H](C)NC(=O)OCc1ccccc1)C(=O)N[C@@H](Cc1ccc(O)cc1)C(=O)N[C@@H](CCC(=O)O)C(N)=O	metabolic stability	human, plasma	2 h	–	compound remaining	88.3%
C=C1C[C@]2(C(=O)OC)C=C(C(=O)Nc3cccc(C(=O)Nc4ccc(Nc5nccc(-c6cccnc6)n5)c(C)c4)c3)C(=O)[C@H]1C2	–	Wistar rat, male, plasma	10 µM, 15 min	–	compound remaining	3.21%
Cc1cc(-c2ccc(C(=O)[C@@H]3CCCC[C@H]3C(=O)Nc3cnn4c3C(=O)NCC4)cc2)[nH]n1	–	human, faeces	oral, 200 mg, 0-216 h	reference: dose	cumulative radioactivity recovery	85.4% and 74.4% and 75.8% and 76.3% and 81.3% and 79.5%
O=C(O)CCCOc1ccc([18F])cc1-c1cc(-c2ccccc2C(F)(F)F)n(-c2ccccc2)n1	OLINDA/EXM from mouse data	human adults, small intestine	–	–	absorbed dose	16.5 µGy/MBq
Nc1ncc(-c2ccc([C@H]3[C@@H](F)[C@@H](F)C[C@@H](F)[C@H]3F)cc2)cn1	liver microsome stability	dog liver microsomes	1 µM	–	hepatic clearance	0.534 L/h/kg
COc1cccc(C2CC(c3ccccc3Cl)Nc3nc(N)nn32)c1 (stereo not drawn)	PAMPA	brain lipid membrane	10 µM, 4 h	–	permeability coefficient	91.6 nm/s
Cc1nc(N)nc2c1C(=O)N[C@@H](c1ccc(F)cc1-c1cccc(O[11CH3])n1)C2	ex vivo biodistribution	mice, MDA-MB-231 subcutaneous xenograft, muscle	60 min post-injection, baseline, vehicle pre-treatment	–	tracer uptake	23.1 ± 1.6 %ID
[123I]c1ccc2nc(-c3ccc(-n4ccnn4)nc3)cn2c1	–	male Wistar rat, heart	intravenous, 4 MBq, 3 h	–	tracer uptake	0.035 %ID/g
COc1ccc2c(c1)CN(C(=O)CCN1CCC(Cc3ccccc3)CC1)CCS2	–	human plasma	250 ng/mL	–	fu	0.017
COc1cnc2cccc(N3CCc4c(cc(Cn5ccnc5)cc4-c4cn(C)nc4C(F)(F)F)C3=O)c2c1	–	CD-1 mouse, male, plasma	oral, 50 mg/kg	–	AUC extrapolated	0.1%
CCN(CC)c1ccc2c(c1)O[B-]1(c3ccc(C)cc3)OC(=O)C(c3ccccc3)=N[N+]1=C2 (stereo not drawn)	–	toluene	–	–	fluorescence quantum yield	0.66
OC1(C(F)(F)F)CCN(c2nc(Nc3ccnc(C(F)(F)F)c3)nc(-c3cccc(C(F)(F)F)n3)n2)C1 (stereo not drawn)	–	Sprague-Dawley rat, both sexes, plasma	oral gavage, 5 mg/kg	–	AUC(0-24 h)	3.72 ± 0.485 µg·h/mL
O=C(Nc1ccc(C2CCCCC2)cc1)C1CC1	liver microsome stability	human liver microsomes	1 µM, without NADPH	–	hepatic clearance	0.66 L/h/kg

Excerpt of the above:
SMILES	assay	system	conditions	how to read	quantity	result
[123I]c1ccc2nc(-c3ccc(-n4ccnn4)nc3)cn2c1	–	male Wistar rat, heart	intravenous, 4 MBq, 3 h	–	tracer uptake	0.035 %ID/g
COc1cnc2cccc(N3CCc4c(cc(Cn5ccnc5)cc4-c4cn(C)nc4C(F)(F)F)C3=O)c2c1	–	CD-1 mouse, male, plasma	oral, 50 mg/kg	–	AUC extrapolated	0.1%
COc1cccc(OC)c1-c1cc(C(=O)NC2(C(=O)O)C3CC4CC(C3)CC2C4)nn1-c1ccc(C(=O)N(C)CCOCCOCCN(C)C(=O)[C@H](CCCCNC(=O)[C@H](CC(C)C)NC(=O)C2OC2C(=O)O)NC(=O)CN2CCN(CC(=O)[O-])CCN(CC(=O)[O-])CCN(CC(=O)[O-])CC2)cc1C(C)C.[177Lu+3] (mixture of isomers)	–	mouse, HT-29 xenograft	4 h post injection, biodistribution	reference: tumour over bone uptake	tumour-to-bone ratio	6.47
O=C(Nc1cnccc1-c1ccc([18F])cc1)c1ccnc(NC(=O)C2CC2)c1	–	FVB/NJ mouse, both sexes, brain	intravenous, 40 min	–	SUV	0.18
COC(=O)[C@@]1(C)C=C(C(=O)Nc2cccc(C(=O)Nc3ccc(Nc4nccc(-c5cccnc5)n4)c(C)c3)c2)C(=O)CC1	metabolic stability	Wistar rat, male, primary hepatocytes	1 µM, 30 min	–	compound remaining	21.2%
COc1cccc(C2CC(c3ccccc3Cl)Nc3nc(N)nn32)c1 (stereo not drawn)	PAMPA	brain lipid membrane	10 µM, 4 h	–	permeability coefficient	91.6 nm/s
